Measured values from different studies.
Every numbered part comes from another study and shows a few of its results, in no order. Values joined by “and” are separate records of one study, mostly repeats; a detail may differ.

Sample 1
Cell line: mouse MPNST tumor cells
Method: high-content immunofluorescence imaging
Measured: nuclear SOX9
Tested at: 10 µM
Time: 12 h
Notes: mean of 2 replicates
Relative to: DMSO control
Direction: higher = more nuclear SOX9
For `CC(Cc1ccc(O)cc1)NCC(O)c1cc(O)cc(O)c1` (stereo not shown), “nuclear SOX9 intensity” read 112 % of DMSO.
`c1ccc(C2CC2)c(OCC2=NCCN2)c1` — result for “nuclear SOX9 intensity”: 103 % of DMSO.
For `CC(=O)OCC(=O)[C@H]1CC[C@H]2[C@@H]3CC[C@H]4C[C@H](O)CC[C@]4(C)[C@H]3C(=O)C[C@]12C`, “nuclear SOX9 intensity” read 103 % of DMSO.
Under “nuclear SOX9 intensity”, `CCCC(C)(COC(N)=O)COC(=O)NC(C)C` (stereo not shown) is recorded as 89.5 % of DMSO.
For `O=C(CCCN1CCC2(CC1)C(=O)NCN2c1ccccc1)c1ccc(F)cc1`, “nuclear SOX9 intensity” read 146 % of DMSO and 149 % of DMSO.
For `CN1CCC2(C)c3cc(O)ccc3N(C)C12` (single isomer, unassigned; (-)), “nuclear SOX9 intensity” read 105 % of DMSO.

Sample 2
Organism: Sarcocystis neurona
Read-out: parasite growth
Tested at: 10 µM
Notes: first screen
Relative to: untreated
`CC(C)CC(N(C)C)C1(c2ccc(Cl)cc2)CCC1.Cl` (stereo not shown): “log2 fold change” -0.0216.
For `CN1CC[C@@]23CCCC[C@@H]2[C@@H]1Cc1ccc(O)cc13.O=C(O)C(O)C(O)C(=O)O`, “log2 fold change” read 0.14.
Under “log2 fold change”, `CN(C)C(=O)Oc1ccc[n+](C)c1.[Br-]` is recorded as -0.0662.
Under “log2 fold change”, `Br.COc1ccc2c(c1)[C@]13CCCC[C@@H]1[C@H](C2)N(C)CC3` is recorded as 0.15.
`Cl.O=C1[C@H]2CCCC[C@H]2C(=O)N1CCCCN1CCN(c2nsc3ccccc23)CC1` — result for “log2 fold change”: -1.19.
`CNC(=O)Oc1ccc2c(c1)[C@]1(C)CCN(C)[C@@H]1N2C.CNC(=O)Oc1ccc2c(c1)[C@]1(C)CCN(C)[C@@H]1N2C.O=S(=O)(O)O` — result for “log2 fold change”: -0.31.
For `CCC(COC(=O)c1cc(OC)c(OC)c(OC)c1)(c1ccccc1)N(C)C.O=C(O)/C=C\C(=O)O` (stereo not shown), “log2 fold change” read 0.27.
Under “log2 fold change”, `C[C@]12CC[C@H]3[C@@H](CCC4=CC(=O)CC[C@@H]43)[C@@H]1CC[C@@H]2O` is recorded as -0.17.
For `COc1ccc2[nH]cc(CCN)c2c1`, “log2 fold change” read 0.26.
Under “log2 fold change”, `Cl.Oc1cc2c(cc1O)[C@H]1c3ccccc3CN[C@@H]1CC2` is recorded as 0.14.
`CCCCC/C=C\C/C=C\C/C=C\C/C=C\CCCC(=O)Nc1ccc(O)cc1` — result for “log2 fold change”: -0.18.

Sample 3
SMILES: CC(C)S(=O)(=O)c1cc2c(Nc3ccc4sc(C5CCCC5)nc4c3)ccnc2cc1OCCO
Method: CCK-8
L929 RIPK3-/- reexpressing RIPK3 K51A/R69H; 6.25 µM — survival: 96.2% and 93% and 92.9% and 94% and 86.1%.
It gave 99.6% and 90.6% and 102% and 97.9% for survival (L929 RIPK3-/- reexpressing RIPK3 K51A/R69H; 1.563 µM, with: zVAD).
L929 RIPK3-/- reexpressing RIPK3 K51A/R69H; 12.5 µM, with: zVAD — survival: 79.7% and 76.6% and 75.7% and 82.7%.
The survival was 87.6% and 92.3% and 96.5% and 91.5% and 95.9% (L929 RIPK3-/- reexpressing RIPK3 K51A/R69H; 3.125 µM, with: zVAD).
L929 RIPK3-/- reexpressing RIPK3 K51A; 25 µM, with: zVAD — survival: 40.5% and 40.4% and 50.3% and 48.1%.

Sample 4
Target: Beta-1 adrenergic receptor (ADRB1, Homo sapiens, UniProt P08588)
Chain of UniProt P08588 (whole entry, looked up): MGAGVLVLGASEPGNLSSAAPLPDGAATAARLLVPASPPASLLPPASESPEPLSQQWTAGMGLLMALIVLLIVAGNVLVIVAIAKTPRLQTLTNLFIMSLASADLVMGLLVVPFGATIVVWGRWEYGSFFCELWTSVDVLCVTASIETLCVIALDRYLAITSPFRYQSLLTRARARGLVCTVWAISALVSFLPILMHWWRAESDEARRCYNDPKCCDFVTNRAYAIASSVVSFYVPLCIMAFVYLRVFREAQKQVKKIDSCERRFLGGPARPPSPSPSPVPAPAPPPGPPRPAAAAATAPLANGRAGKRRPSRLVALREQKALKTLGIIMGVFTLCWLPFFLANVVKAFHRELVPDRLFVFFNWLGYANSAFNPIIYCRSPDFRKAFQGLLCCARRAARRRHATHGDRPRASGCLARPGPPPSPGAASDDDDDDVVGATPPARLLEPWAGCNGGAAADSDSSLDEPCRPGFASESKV
Action: antagonist
With `CC(C)(C)NCC(O)c1cc(Br)c(N)c(Br)c1` (stereo not shown) the IC50 was no less than 100 µM.
For `C[C@@H](O)[C@H](NC(=O)[C@H]1NC(=O)[C@H]([C@@H](C)O)NC(=O)[C@H](CCCN)NC(=O)[C@@H](Cc2c[nH]c3ccccc23)NC(=O)[C@H](Cc2ccc(O)cc2)NC(=O)[C@@H](NC(=O)[C@H](N)Cc2ccccc2)CSSC1(C)C)C(N)=O`, the IC50 was no less than 100 µM.
For `COc1ccc(C[C@@H](C)NC[C@H](O)c2ccc(O)c3[nH]c(=O)ccc23)cc1`, the IC50 was no less than 100 µM.

For quick reference, copied from above (sample 4):
With `CC(C)(C)NCC(O)c1cc(Br)c(N)c(Br)c1` (stereo not shown) the IC50 was no less than 100 µM.
For `C[C@@H](O)[C@H](NC(=O)[C@H]1NC(=O)[C@H]([C@@H](C)O)NC(=O)[C@H](CCCN)NC(=O)[C@@H](Cc2c[nH]c3ccccc23)NC(=O)[C@H](Cc2ccc(O)cc2)NC(=O)[C@@H](NC(=O)[C@H](N)Cc2ccccc2)CSSC1(C)C)C(N)=O`, the IC50 was no less than 100 µM.
For `COc1ccc(C[C@@H](C)NC[C@H](O)c2ccc(O)c3[nH]c(=O)ccc23)cc1`, the IC50 was no less than 100 µM.
